Measurements gathered from unrelated publications.
Each line is one published result; not all experiments were run side by side. Values joined by “and” are separate records of one study, mostly repeats; a detail may differ. ± gives the spread as reported.
U2AF2: U2AF2 148-342 (Homo sapiens, UniProt P26368)
UniProt P26368, sequence (whole entry, looked up): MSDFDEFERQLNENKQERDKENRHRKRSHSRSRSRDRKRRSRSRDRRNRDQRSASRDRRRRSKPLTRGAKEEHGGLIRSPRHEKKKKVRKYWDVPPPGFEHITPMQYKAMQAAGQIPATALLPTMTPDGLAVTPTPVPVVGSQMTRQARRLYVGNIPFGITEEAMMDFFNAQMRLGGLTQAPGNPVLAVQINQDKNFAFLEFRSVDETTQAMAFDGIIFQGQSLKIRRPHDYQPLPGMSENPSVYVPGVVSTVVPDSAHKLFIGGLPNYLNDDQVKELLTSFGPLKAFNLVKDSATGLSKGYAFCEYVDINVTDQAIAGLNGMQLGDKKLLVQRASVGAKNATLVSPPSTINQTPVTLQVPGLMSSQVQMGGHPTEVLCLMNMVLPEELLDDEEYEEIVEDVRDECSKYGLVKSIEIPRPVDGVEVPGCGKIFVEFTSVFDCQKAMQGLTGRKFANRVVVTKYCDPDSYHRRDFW
SPT15 full length assumed: SPT15 full length assumed (Saccharomyces cerevisiae, UniProt P13393)
UniProt P13393, sequence (whole entry, looked up): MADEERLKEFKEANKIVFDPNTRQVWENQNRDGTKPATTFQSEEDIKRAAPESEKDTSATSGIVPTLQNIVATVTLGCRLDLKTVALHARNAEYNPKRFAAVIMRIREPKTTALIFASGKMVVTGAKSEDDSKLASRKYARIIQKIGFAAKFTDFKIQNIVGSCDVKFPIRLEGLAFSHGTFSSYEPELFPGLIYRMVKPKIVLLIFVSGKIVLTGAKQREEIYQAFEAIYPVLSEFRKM
B1: FasL; sequence looked up; chain QIGHPSPPPEKKELRKVAHLTGKSNSRSMPLEWEDTYGIVLLSGVKYKKGGLVINETGLYFVYSKVYFRGQSCNNLPLSHKVYMRNSKYPQDLVMMEGKMMSYCTTGQMWARSSYLGAVFNLTSADHLYVNVSELSLVNFEESQTFFGLYKL
B2: human RAB13; sequence looked up; chain MAKAYDHLFKLLLIGDSGVGKTCLIIRFAEDNFNNTYISTIGIDFKIRTVDIEGKKIKLQVWDTAGQERFKTITTAYYRGAMGIILVYDITDEKSFENIQNWMKSIKENASAGVERLLLGNKCDMEAKRKVQKEQADKLAREHGIRFFETSAKSSMNVDEAFSSLARDILLKSGGRRSGNGNKPPSTDLKTCDKKNTNKC
B3: human RBM10; sequence looked up; chain MEYERRGGRGDRTGRYGATDRSQDDGGENRSRDHDYRDMDYRSYPREYGSQEGKHDYDDSSEEQSAEDSYEASPGSETQRRRRRRHRHSPTGPPGFPRDGDYRDQDYRTEQGEEEEEEEDEEEEEKASNIVMLRMLPQAATEDDIRGQLQSHGVQAREVRLMRNKSSGQSRGFAFVEFSHLQDATRWMEANQHSLNILGQKVSMHYSDPKPKINEDWLCNKCGVQNFKRREKCFKCGVPKSEAEQKLPLGTRLDQQTLPLGGRELSQGLLPLPQPYQAQGVLASQALSQGSEPSSENANDTIILRNLNPHSTMDSILGALAPYAVLSSSNVRVIKDKQTQLNRGFAFIQLSTIVEAAQLLQILQALHPPLTIDGKTINVEFAKGSKRDMASNEGSRISAASVASTAIAAAQWAISQASQGGEGTWATSEEPPVDYSYYQQDEGYGNSQGTESSLYAHGYLKGTKGPGITGTKGDPTGAGPEASLEPGADSVSMQAFSRAQPGAAPGIYQQSAEASSSQGTAANSQSYTIMSPAVLKSELQSPTHPSSALPPATSPTAQESYSQYPVPDVSTYQYDETSGYYYDPQTGLYYDPNSQYYYNAQSQQYLYWDGERRTYVPALEQSADGHKETGAPSKEGKEKKEKHKTKTAQQIAKDMERWARSLNKQKENFKNSFQPISSLRDDERRESATADAGYAILEKKGALAERQHTSMDLPKLASDDRPSPPRGLVAAYSGESDSEEEQERGGPEREEKLTDWQKLACLLCRRQFPSKEALIRHQQLSGLHKQNLEIHRRAHLSENELEALEKNDMEQMKYRDRAAERREKYGIPEPPEPKRRKYGGISTASVDFEQPTRDGLGSDNIGSRMLQAMGWKEGSGLGRKKQGIVTPIEAQTRVRGSGLGARGSSYGVTSTESYKETLHKTMVTRFNEAQ
B4: human reticulocalbin-1; sequence looked up; chain KPTVRKERVVRPDSELGERPPEDNQSFQYDHEAFLGKEDSKTFDQLTPDESKERLGKIVDRIDNDGDGFVTTEELKTWIKRVQKRYIFDNVAKVWKDYDRDKDDKISWEEYKQATYGYYLGNPAEFHDSSDHHTFKKMLPRDERRFKAADLNGDLTATREEFTAFLHPEEFEHMKEIVVLETLEDIDKNGDGFVDQDEYIADMFSHEENGPEPDWVLSEREQFNEFRDLNKDGKLDKDEIRHWILPQDYDHAQAEARHLVYESDKNKDEKLTKEEILENWNMFVGSQATNYGEDLTKNHDEL
B5: peroxiredoxin-6 (human); sequence looked up; chain PGGLLLGDVAPNFEANTTVGRIRFHDFLGDSWGILFSHPRDFTPVCTTELGRAAKLAPEFAKRNVKLIALSIDSVEDHLAWSKDINAYNCEEPTEKLPFPIIDDRNRELAILLGMLDPAEKDEKGMPVTARVVFVFGPDKKLKLSILYPATTGRNFDEILRVVISLQLTAEKRVATPVDWKDGDSVMVLPTIPEEEAKKLFPKGVFTKELPSGKKYLRYTPQP

| Substance | target or system | assay | test system | conditions | how to read | measurement | result |
| --- | --- | --- | --- | --- | --- | --- | --- |
| QPDPIPNDY | Jurkat expressing engineered TCR | NFAT-eGFP reporter, fluorescence microscopy | peptide | concentration not given, HLA-A*01:01 on EL4 cells | – | GFP-positive cells | 0.459% |
| epoetin alfa | UT7/EPO | RT-qPCR, item: EGR2 | – | concentration not given, 90 min, normalized to HPRT1 | reference: vehicle | mRNA level | 8.5 fold |
| ELEIVNYGY | Jurkat expressing engineered TCR | NFAT-eGFP reporter, fluorescence microscopy | peptide | concentration not given, HLA-A*01:01 on EL4 cells | – | GFP-positive cells | 0.359% |
| PSMD2 (human) | CYB5R4 knockout human cells | PP4 interaction, 3xFLAG-PP4C IP-MS | – | concentration not given | reference: CYB5R4 KO over parental | log2 fold change | -0.16 |
| catalase | HT-29 | western blot, item: p27 | – | concentration not given, 48 h | – | protein level | increased |
| QVDPIGFLF | Jurkat expressing engineered TCR | NFAT-eGFP reporter, fluorescence microscopy | peptide | concentration not given, HLA-A*01:01 on EL4 cells | – | GFP-positive cells | 0.484% |
| human RNA helicase DHX34 | CYB5R4 knockout human cells | PP4 interaction, 3xFLAG-PP4C IP-MS | – | concentration not given | reference: CYB5R4 KO over parental | log2 fold change | -0.16 |
| B1 (FasL) | mouse thymocytes | inducer, flow cytometry | – | concentration not given | – | PI-positive cells | 5.6% and 5.4% |
| Ac-LRKLRKRLLRDWLKAFYDKVAEKLKEAF-NH2 (N-acetyl, C-amide) | HUVEC | inhibitor, Western blot | peptide | concentration not given, 6 h, together with: LPS 1 µg/mL | – | VCAM-1 expression | inhibited |
| B2 (human RAB13) | CYB5R4 knockout human cells | PP4 interaction, 3xFLAG-PP4C IP-MS | – | concentration not given | reference: CYB5R4 KO over parental | log2 fold change | -1.6 |
| heparin | PC-12 cells | – | – | 100 µg/mL, together with: NGF | – | cells with neurites | > 70% |
| UAUUUUGGC (ssRNA) | U2AF2 | sequencing of bound RNA | RNA | motif only | – | Kd | 1150 nM |
| monocyte chemoattractant protein-1 | HUVEC | scratch wound | – | 50 ng/mL, 24 h | reference: control | endothelial cell migration | increased |
| ATGTCACAGAAGCAAAGTACGAATCAGAATCAAAATCAAGTCAATCGGTCC (dsDNA; 5'-amino-C6 primer) | SPT15 full length assumed | array | double-stranded DNA, one strand shown | TBP alone | – | Kd | 12.5 ± 0.48 nM |
| Peginesatide | UT7/EPO | tyrosine phosphorylation, LC-MS/MS phosphoproteomics, GluC, item: GAB3 tyrosine 560 | – | 10 nM, 15 min, together with: 10 U/mL EPO | reference: vehicle | phosphorylation level | 7.2 fold |
| B3 (human RBM10) | CYB5R4 knockout human cells | PP4 interaction, 3xFLAG-PP4C IP-MS | – | concentration not given | reference: CYB5R4 KO over parental | log2 fold change | 0.38 |
| EVDPIGFDF | Jurkat expressing engineered TCR | NFAT-eGFP reporter, fluorescence microscopy | peptide | concentration not given, HLA-A*01:01 on EL4 cells | – | GFP-positive cells | 0.421% |
| UGUUAUGUG (ssRNA) | U2AF2 | sequencing of bound RNA | RNA | motif only | – | Kd | 580 nM |
| B4 (human reticulocalbin-1) | CYB5R4 knockout human cells | PP4 interaction, 3xFLAG-PP4C IP-MS | – | concentration not given | reference: CYB5R4 KO over parental | log2 fold change | 0.25 |
| RTDPIPLGM | Jurkat expressing engineered TCR | NFAT-eGFP reporter, fluorescence microscopy | peptide | concentration not given, HLA-A*01:01 on EL4 cells | – | GFP-positive cells | 0.46% |
| MTVCNASQRQAHAQATAVSL | H1666 lung adenocarcinoma/BAC | phage binding output/input | peptide | – | reference: control phage | selectivity ratio | 9.4 ± 1.2 |
| B5 (peroxiredoxin-6) | CYB5R4 knockout human cells | PP6 interaction, 3xFLAG-PP6C IP-MS | – | concentration not given | reference: CYB5R4 KO over parental | log2 fold change | -0.42 |
| DNA 1 CTAATATACACGGATACAAAAGAAATACACATAATTCAATTCAATCGGTCC / DNA 2 GGACCGATTGACTTGAATTATGTGTATTTCTTTTGTATCCGTGTATATTAG (dsDNA; blunt; C:T mismatch; 5'-amino-C6 primer) | SPT15 full length assumed | EMSA | double-stranded DNA | – | – | Kd | 37 ± 14 nM |

Repeated from above:
| Substance | target or system | assay | test system | conditions | how to read | measurement | result |
| --- | --- | --- | --- | --- | --- | --- | --- |
| RTDPIPLGM | Jurkat expressing engineered TCR | NFAT-eGFP reporter, fluorescence microscopy | peptide | concentration not given, HLA-A*01:01 on EL4 cells | – | GFP-positive cells | 0.46% |
| MTVCNASQRQAHAQATAVSL | H1666 lung adenocarcinoma/BAC | phage binding output/input | peptide | – | reference: control phage | selectivity ratio | 9.4 ± 1.2 |
| B5 (peroxiredoxin-6) | CYB5R4 knockout human cells | PP6 interaction, 3xFLAG-PP6C IP-MS | – | concentration not given | reference: CYB5R4 KO over parental | log2 fold change | -0.42 |
